{"data": "Measurements gathered from unrelated publications", "note": "Each numbered part is a random draw from the data of one study; scales do not carry over between parts. Positions count from the first letter of the parent shown."}
{"data": "Block 1", "target": "CCNB3, cyclin fold, Cln2 fusion (human)", "technique": "yeast growth competition, sequencing", "sample": "yeast", "notes": "weak parent motif", "relative to": "not given", "direction": "higher = stronger binding", "starting sequence": "INSM1 docking peptide (human); PKAIRKLHFEDEV; partner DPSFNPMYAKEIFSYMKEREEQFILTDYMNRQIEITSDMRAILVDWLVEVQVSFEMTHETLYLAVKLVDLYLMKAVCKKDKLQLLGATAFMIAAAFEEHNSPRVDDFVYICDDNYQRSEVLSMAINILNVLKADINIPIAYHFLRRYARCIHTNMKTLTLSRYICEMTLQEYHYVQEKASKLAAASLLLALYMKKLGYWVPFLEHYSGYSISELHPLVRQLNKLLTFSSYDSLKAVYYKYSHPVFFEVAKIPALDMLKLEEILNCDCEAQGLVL"}
{"Substitution": "PKAIRKLHFLDEV [E10L]", "normalised enrichment score": -0.0395}
{"Substitution": "PKAIRKAHFEDEV [L7A]", "normalised enrichment score": -0.025}
{"Substitution": "PKAIRKLHFEDMV [E12M]", "normalised enrichment score": 0.868}
{"data": "Block 2", "target": "Histone acetyltransferase KAT6A, winged helix 2, GST fusion (KAT6A, Homo sapiens, UniProt Q92794, residues 85-181)", "technique": "protein binding microarray", "form": "double-stranded DNA, one strand shown", "sample": "in vitro", "concentration": "not given", "notes": "8-mer, flanks averaged, mean of 2 arrays, mostly near background", "relative to": "not given", "direction": "higher = stronger binding", "Residues (chain)": "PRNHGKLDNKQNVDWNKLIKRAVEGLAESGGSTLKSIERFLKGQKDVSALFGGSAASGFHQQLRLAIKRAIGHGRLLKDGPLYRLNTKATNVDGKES"}
{"Oligonucleotide": "CCTTAACC", "E-score": -0.136}
{"Oligonucleotide": "AGGCTTGG", "E-score": 0.0424}
{"Oligonucleotide": "GCGAGACA", "E-score": 0.00228}
{"Oligonucleotide": "CACGTAGA", "E-score": -0.296}
{"Oligonucleotide": "TAACAGTA", "E-score": -0.122}
{"data": "Block 3", "target": "RNA binding protein fox-1 homolog 2, RRM domain, GST-SBP tag (RBFOX2, Homo sapiens, UniProt O43251-10, residues 100-194)", "technique": "RNA Bind-n-Seq", "form": "RNA", "sample": "in vitro", "concentration": "365 nM", "notes": "natural RNA segment, single round, ends assumed", "relative to": "no-protein control", "direction": "higher = stronger binding", "Target sequence (chain)": "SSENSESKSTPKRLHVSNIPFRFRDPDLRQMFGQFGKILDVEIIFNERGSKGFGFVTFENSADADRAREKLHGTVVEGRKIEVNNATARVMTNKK"}
{"Oligonucleotide": "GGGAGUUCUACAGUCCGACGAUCAAUUCCAUCUCUAAUCUUGGAUAAUACUGGUUGGUUAACAAUAAAGUGACAAAAGCUCCCGCCUUGGAGGUCCGCUGUUGUUAUUUAACGUGGUUUCGCACGUAGCUCUUUGGAAUUCUCGGGUGCCAA", "RBNS enrichment (R)": 0.587}
{"Oligonucleotide": "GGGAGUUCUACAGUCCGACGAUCCAUCAAAGAGAGAAAAGAAUGUGGGGCGAUUCCGCUGCUCCACACCCCCAGCGGCCCAUCCCACACCUCAGCUUCAUGUCUGUCCCAUCCCUAUACCAUCCCACCCUGUUUGGAAUUCUCGGGUGCCAA", "RBNS enrichment (R)": 0.602}
{"Oligonucleotide": "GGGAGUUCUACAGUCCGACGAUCCUGGGUCAAGACUGGUCCAGCUUAGAGUGCAUGCUCUGUUCAUACUCAGCCUAGCUCACAGUGACUUGUGCUUCACUGUCAGGAUGCUCUGUAAAGUUCCUCAUCCCUGUUGGAAUUCUCGGGUGCCAA", "RBNS enrichment (R)": 0.695}
{"Oligonucleotide": "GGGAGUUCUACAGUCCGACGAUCUAUAUGGGGCUUUAGCAAGUUUGAGCAUAGGCUCUUUUUGCUGCCUGUGAGCAGUCCCUCUGGAAAGAAACAUGUGAGUAAGUGAGAGAGAGUGUGUGUGUAUGUGUGUGUGGAAUUCUCGGGUGCCAA", "RBNS enrichment (R)": 9}
{"Oligonucleotide": "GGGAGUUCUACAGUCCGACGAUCCUGCUCGUUCUUAAAAAGGUAAAACUAAGAUUUAGAAACAAGGCAGGCCUUAGAGCCGAGGGAGACUAUUAGGCAGCAGGCCAAACCACUCUGGCCCUGGAGCCGCCUUUUGGAAUUCUCGGGUGCCAA", "RBNS enrichment (R)": 0.297}
{"Oligonucleotide": "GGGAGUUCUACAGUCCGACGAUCGUUAAUGGGAGGAAGGAAAGAGACCCUGCCUAGGGAAGGUUGGCUUACAGCCACCCUUGCAAGAAGUGCUGGUAUAGGGUCAGCUGGGGAGAAGAGCCCUGGUCAGUGGCUGGAAUUCUCGGGUGCCAA", "RBNS enrichment (R)": 0.539}
{"data": "Further values, each from its own experiment"}
{"Substance": "PhoQ, residues 284 288 289 292 302 303 NLSRDF", "target": "PhoP, residues 12 14 15 18 19 STWGI (Escherichia coli, UniProt P23836)", "assay": "Sort-seq, item: YFP reporter", "test system": "E. coli", "conditions": "PhoQ-PhoP variant library, together with: 10 µM Mg2+", "scale": "relative to: high Mg2+ state, higher = stronger signaling", "quantity": "fold induction", "result": 10.7}
{"note": "Excerpt of the above (further values, each from its own experiment):"}
{"Substance": "PhoQ, residues 284 288 289 292 302 303 NLSRDF", "target": "PhoP, residues 12 14 15 18 19 STWGI (Escherichia coli, UniProt P23836)", "assay": "Sort-seq, item: YFP reporter", "test system": "E. coli", "conditions": "PhoQ-PhoP variant library, together with: 10 µM Mg2+", "scale": "relative to: high Mg2+ state, higher = stronger signaling", "quantity": "fold induction", "result": 10.7}
